Measurements pooled from the literature.
Compare with care: the assays were run in different laboratories. Numbers after ± are the reported error.

Compound	test	test system	conditions	scale	endpoint	value
CCCC[C@H](NC(=O)CNC(=O)CNC(=O)CN1CCN(CC(=O)O)CCN(CC(=O)O)CCN(CC(=O)O)CC1)C(=O)N[C@H]1CC(=O)NCCCC[C@@H](C(N)=O)NC(=O)[C@H](Cc2c[nH]c3ccccc23)NC(=O)[C@H](CCCNC(=N)N)NC(=O)[C@@H](Cc2ccccc2)NC(=O)[C@H](Cc2c[nH]cn2)NC1=O [gallium-67 labelled]	–	female C57 mice, B16/F1 melanoma	intravenous, 0.037 MBq, 24 h	relative to: tumour over liver	tumour to tissue ratio	13.9
COC(=O)c1ccc(-c2cn(Cc3cc(Cl)ccc3O[11CH3])nn2)cc1	PET, 1TCM	rhesus macaque, hippocampus	dose not given	–	distribution volume VT	0.461 mL/cm³
CC(C)c1cnc(-c2cc(Cl)ccc2F)cc1Nc1ccncc1C(=O)NC(CO)CO	measured: hepatic haemorrhage	human patients	oral, dose not given, grade 1	–	patients with related SAE	0%
Cn1c(=O)oc2ccc(-c3ccc(CC(C#N)NC(=O)C4CNCCCO4)c(F)c3)cc21 (centres unmarked)	measured: alanine aminotransferase increased	human	40 mg single dose, fasted	–	subjects with TRAE	16.7%
NC[C@@H](C(=O)Nc1ccc(-c2cn[nH]c2)cc1)c1ccccc1	OECD 405 eye irritation	New Zealand White rabbit, eye	topical, 0.1%, 8 h (day 1), scale 0 to 4	direction not given	cornea score	0
CC[C@H](C)[C@H](NC(=O)[C@H](CC(C)C)NC(=O)[C@H](Cc1c[nH]c2ccccc12)NC(=O)[C@H](C)NC(=O)[C@@H](NC(=O)[C@H](Cc1ccccc1)NC(=O)[C@H](CC(=O)O)NC(=O)[C@H](CCCNC(=N)N)NC(=O)[C@H](C)NC(=O)[C@H](C)NC(=O)[C@H](CC(C)C)NC(=O)[C@H](C)NC(=O)[C@H](CC(=O)O)NC(=O)[C@H](CC(C)C)NC(=O)[C@@H](NC(=O)[C@@H](NC(=O)[C@H](C)NC(=O)[C@H](CC(C)C)NC(=O)[C@H](CCC(=O)O)NC(=O)[C@H](CO)NC(=O)[C@H](CO)NC(=O)[C@H](Cc1ccccc1)NC(=O)[C@@H](NC(=O)CNC(=O)[C@H](CCC(=O)O)NC(=O)CNC(=O)[C@@H](N)Cc1c[nH]cn1)[C@@H](C)O)[C@@H](C)O)[C@@H](C)CC)[C@@H](C)CC)C(=O)N[C@@H](C)C(=O)N[C@H](C(=O)N[C@@H](CCCCN)C(=O)N[C@H](C(=O)N[C@H](C(=O)N[C@@H](CC(=O)O)C(=O)N[C@@H](CCCCN)C(=O)O)[C@@H](C)O)[C@@H](C)CC)[C@@H](C)O	immunoaffinity LC-MS/MS	healthy human subjects, plasma	subcutaneous, 10 mg once weekly, day 36 after 6 doses, steady state, geometric mean	–	AUCtau	0.211 µM·h
COc1cc2c(cc1OC)CN(CCCCn1ccc3cc(OCC[18F])ccc31)C2	–	male ICR mice	intravenous, 2 min post-injection	–	brain uptake	3.76 ± 0.28 %ID/g
CCCC[C@@H]1NC(=O)[C@@H](NC(=O)[C@H](CCC(=O)O)NC(=O)CNC(=O)CN2CCN(CC(=O)O)CCN(CC(=O)O)CCN(CC(=O)O)CC2)CCCCNC(=O)C[C@@H](C(N)=O)NC(=O)[C@H](C(C)C)NC(=O)[C@@H]2CCCN2C(=O)[C@H](CCCNC(=N)N)NC(=O)CNC(=O)[C@H](Cc2c[nH]c3ccccc23)NC(=O)[C@H](CCCNC(=N)N)NC(=O)[C@@H](Cc2ccccc2)NC(=O)[C@H](Cc2c[nH]cn2)NC(=O)[C@H](CCC(=O)O)NC1=O [gallium-67 labelled]	–	C57 mice, B16/F1 flank melanoma	intravenous, 0.037 MBq, 24 h	–	urine excretion	88.6 ± 6.78%
C[C@]12C[C@H](c3ccccc3)C3=C4CCC(=O)C=C4CC[C@H]3[C@@H]1CC[C@@]2(O)C(F)(F)C(F)(F)F	–	rat liver microsomes	100 % absorption assumed	–	maximal oral bioavailability	88%
N#Cc1nc(N2CCOCC2)nc(N(Cc2ccc(F)cc2)CC2CCCNC2)n1 (centres unmarked)	–	female CD-1 mice	intraperitoneal, 10 mg/kg, 2 h	–	brain concentration	32 ng/g
CC(=O)N[C@H](CSSC[C@H](N)C(=O)O)C(=O)N[C@H](C)C(=O)N[C@H](CCCNC(=N)N)C(=O)N[C@H](CCCNC(=N)N)C(=O)N[C@H](CCCNC(=N)N)C(=O)N[C@H](C)C(=O)N[C@H](CCCNC(=N)N)C(N)=O	–	male human, plasma	intravenous, 10 mg, single dose, healthy volunteers	–	half-life	18.3 h
O=c1nc(NO)ccn1[C@@H]1O[C@H](CO)[C@@H](O)[C@H]1O	RT-PCR, measured: CYP2C13	rat, arthritis model, liver	oral, 80 mg/kg twice daily, 5 days	relative to: untreated arthritic rats	mRNA level	0.6 fold
COc1cc(NC(C)=O)c2c(c1O)-c1c(OC)c(OC)cc3c1C(C2)N(C)CC3 (centres unmarked)	–	rat brain homogenate	100 µg/mL, 40 d, -20 °C, long-term storage	–	remaining compound	90.1 ± 3.5%
CC(C)(O)c1ncc([S@](N)(=O)=NC(=O)Nc2c3c(cc4c2CCC4)CCC3)s1	–	human, plasma	oral, 30 mg, single dose, fasted, healthy volunteers	–	AUC(0-t)	27700 ng·h/mL
CC[C@H](C)[C@H](NC(=O)[C@@H]1CCCN1C(=O)CNC(=O)[C@H](Cc1ccccc1)NC(=O)[C@H](CC(N)=O)NC(=O)[C@H](CC(N)=O)NC(=O)[C@H](CO)NC(=O)[C@H](CO)NC(=O)[C@H](Cc1c[nH]cn1)NC(=O)[C@@H](NC(=O)[C@H](CC(C)C)NC(=O)[C@H](Cc1ccccc1)NC(=O)[C@H](CC(N)=O)NC(=O)[C@H](C)NC(=O)[C@H](CC(C)C)NC(=O)[C@H](CCCNC(=N)N)NC(=O)[C@H](CCC(N)=O)NC(=O)[C@@H](NC(=O)[C@H](C)NC(=O)[C@@H]1CSSC[C@H](NC(=O)[C@@H](N)CCCCN)C(=O)N[C@@H](CC(N)=O)C(=O)N[C@@H]([C@@H](C)O)C(=O)N[C@@H](C)C(=O)N[C@@H]([C@@H](C)O)C(=O)N1)[C@@H](C)O)C(C)C)C(=O)N[C@@H](CC(C)C)C(=O)N[C@@H](CO)C(=O)N[C@@H](CO)C(=O)N[C@H](C(=O)N[C@@H](CC(N)=O)C(=O)N[C@H](C(=O)NCC(=O)N[C@@H](CO)C(=O)N[C@@H](CC(N)=O)C(=O)N[C@H](C(=O)N[C@@H](Cc1ccc(O)cc1)C(N)=O)[C@@H](C)O)C(C)C)[C@@H](C)O	ion mobility mass spectrometry	nitrogen drift gas	dimer ion charge +4	–	collision cross section	880 ± 2.3 Å²
COC1C=COC2(C)Oc3c(C)c(O)c4c(c3C2=O)C2=NC3(CCN(CC(C)C)CC3)NC2=C(NC(=O)C(C)=CC=CC(C)C(O)C(C)C(O)C(C)C(OC(=O)Nc2cnccn2)C1C)C4=O (centres unmarked)	–	CD-1 mouse female, plasma	oral, 10 mg/kg	–	fAUC/MIC ratio	89

Compound	test	test system	conditions	scale	endpoint	value
Cc1ccc(OCC(=O)O)cc1	–	Sprague-Dawley rat Crl:CD(SD), female, plasma	oral, 10 mg/kg/day of parent drug, day 90, 90-day repeated dosing	–	t1/2	2.79 h
CC(=O)c1cnc(N)nc1N1CC[C@H]1c1nn2ccc(Cl)c2c(=O)n1-c1ccccc1	–	female Wistar rat collagen-induced arthritis, plasma	oral, dose not given	–	AUC at ED50	1420 ng·h/mL
CN1CCC[C@]1(C)/C=C/S(=O)(=O)NC(=O)Nc1c2c(cc3c1CCC3)CCC2	–	human, plasma	oral, 50 mg, single dose, healthy volunteers	–	AUC(0-inf)	41400 ng·h/mL
O=C([O-])CN1CCN(CC(=O)[O-])CCN(CC(=O)NC[C@H]2CC[C@H](C(=O)N[C@H](Cc3cnc4ccccc4c3)C(=O)NCCCC[C@H](NC(=O)N[C@@H](CCC(=O)O)C(=O)O)C(=O)O)CC2)CCN(CC(=O)[O-])CC1.[64Cu+2]	PET/CT dosimetry OLINDA/EXM	healthy volunteers, salivary glands	up to 24 h post-injection	–	absorbed dose	0.142 mGy/MBq
CCCCN1C(=O)c2cccc3c(NCCCCCN4CCOCC4)ccc(c23)C1=O	–	aqueous medium	pH 6	–	average fluorescence lifetime	4.3 ns
CSCOC1C(=O)C2(C)C(OCSC)CC3OCC3(OC(C)=O)C2C(OC(=O)c2ccccc2)C2(O)CC(OC(=O)C(O)C(C=C(C)C)NC(=O)OC(C)(C)C)C(C)=C1C2(C)C (centres unmarked)	–	male Sprague-Dawley rat, plasma	intravenous, 4 mg/kg	–	AUC(0-t)	941 ng·h/mL
COc1ccc(/C=C/c2ccc(-c3ccc(C)cn3)nc2)cc1	TCSPC	EtOH	–	–	radiative decay rate constant	0.39 ns⁻¹
O=[11C](OC(C(F)(F)F)C(F)(F)F)N1CCC(CNS(=O)(=O)c2ccc(Cl)cc2)CC1	PET	Sprague-Dawley rat, pons	intravenous	–	uptake	1.25 SUV
Oc1ccc2ccccc2c1/N=N/c1ccccc1	–	rat whole blood QC samples	16.0 µg/L, 2 h, room temperature, short-term stability	–	measured concentration	15.7 µg/L
C#CCOc1ccc(/C=C2\SC(=O)N(CC(=O)NCc3ccccc3)C2=O)cc1	–	neat PEG 400	298.15 K	–	standard Gibbs energy of solution	3.48 kcal/mol
O=C(CCc1ccc(CNC(C(=O)OC2CCCC2)C2CCCCC2)cn1)NO (centres unmarked)	–	human	60 mg, single dose, geometric mean	–	CL/F	243 L/h
c1ccc(CN2CCOCCOCCN(CCCCCCCCN3CCOCCOCCN(CCCCCCCCN4CCOCCOCCN(Cc5ccccc5)CCOCCOCC4)CCOCCOCC3)CCOCCOCC2)cc1	dynamic light scattering	LB Miller medium	25 µM	–	aggregate size	227 nm
CC(C)[C@H](NC(=O)[C@@H]1CCCN1C(=O)[C@H](CCCNC(=N)N)NC(=O)[C@H](CS)NC(=O)[C@H](Cc1c[nH]c2ccccc12)NC(=O)[C@H](CCCNC(=N)N)NC(=O)[C@@H](Cc1ccccc1)NC(=O)[C@H](Cc1c[nH]cn1)NC(=O)[C@H](CCC(=O)O)NC(=O)[C@H](CS)NC(=O)[C@H](CS)NC(=O)[C@@H]1CC(=O)N[C@@H](CCCNC(=N)N)C(=O)NCC(=O)N[C@@H](CC(=O)O)C(=O)N[C@H](Cc2ccc(O)cc2)C(=O)N1)C(N)=O [technetium-99m labelled]	–	C57 mice B16/F1 melanoma female	iv, 2 h, with: NDP-MSH blockade	relative to: tumour over blood	tumour-to-tissue ratio	5.8
N=C(N)NCCC[C@@H]1NC(=O)[C@H](Cc2c[nH]c3ccccc23)NC(=O)[C@@H](CC2CCCCC2)NC(=O)[C@@H]2CCCN2C(=O)[C@@H](NC(=O)CCc2ccccc2)CCCNC1=O	–	C57BL/6J mouse, plasma	subcutaneous, 1 mg/kg, single dose	–	Tmax	0.466 h
CC(C)CCNCC(=O)O	shake flask	water	24 h	–	logP	-1.13
CC(C)[C@H](NC(=O)CNC(=O)[C@H](CCC(N)=O)NC(=O)[C@H](C)N)C(=O)O	LC-MS/MS	human, plasma	intravenous, 10 mg/kg three times daily, day 2, first dose, 10 min infusion, geometric mean	–	AUC(0-inf)	242 ng·h/mL

Repeated from above:
Compound	test	test system	conditions	scale	endpoint	value
CSCOC1C(=O)C2(C)C(OCSC)CC3OCC3(OC(C)=O)C2C(OC(=O)c2ccccc2)C2(O)CC(OC(=O)C(O)C(C=C(C)C)NC(=O)OC(C)(C)C)C(C)=C1C2(C)C (centres unmarked)	–	male Sprague-Dawley rat, plasma	intravenous, 4 mg/kg	–	AUC(0-t)	941 ng·h/mL
COc1ccc(/C=C/c2ccc(-c3ccc(C)cn3)nc2)cc1	TCSPC	EtOH	–	–	radiative decay rate constant	0.39 ns⁻¹
O=[11C](OC(C(F)(F)F)C(F)(F)F)N1CCC(CNS(=O)(=O)c2ccc(Cl)cc2)CC1	PET	Sprague-Dawley rat, pons	intravenous	–	uptake	1.25 SUV
